Measured values from different studies.
Protocols differ between the studies behind these lines. Numbers after ± are the reported error.
SCTR: Secretin receptor (SCTR, Homo sapiens, UniProt P47872)
UniProt P47872, sequence (whole entry, looked up): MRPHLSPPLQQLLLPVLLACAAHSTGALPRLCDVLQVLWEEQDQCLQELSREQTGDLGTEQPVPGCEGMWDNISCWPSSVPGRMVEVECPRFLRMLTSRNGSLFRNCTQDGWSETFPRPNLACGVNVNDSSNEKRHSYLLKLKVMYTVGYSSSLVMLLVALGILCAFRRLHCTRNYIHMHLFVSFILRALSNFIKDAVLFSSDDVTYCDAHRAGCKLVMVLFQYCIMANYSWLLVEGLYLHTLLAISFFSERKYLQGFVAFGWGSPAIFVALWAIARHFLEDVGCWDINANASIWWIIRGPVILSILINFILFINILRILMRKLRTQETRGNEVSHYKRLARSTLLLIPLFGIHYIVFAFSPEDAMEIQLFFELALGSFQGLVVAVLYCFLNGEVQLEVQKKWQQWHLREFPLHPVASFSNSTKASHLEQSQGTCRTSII
UniProt Q9CPV9, sequence (whole entry, looked up): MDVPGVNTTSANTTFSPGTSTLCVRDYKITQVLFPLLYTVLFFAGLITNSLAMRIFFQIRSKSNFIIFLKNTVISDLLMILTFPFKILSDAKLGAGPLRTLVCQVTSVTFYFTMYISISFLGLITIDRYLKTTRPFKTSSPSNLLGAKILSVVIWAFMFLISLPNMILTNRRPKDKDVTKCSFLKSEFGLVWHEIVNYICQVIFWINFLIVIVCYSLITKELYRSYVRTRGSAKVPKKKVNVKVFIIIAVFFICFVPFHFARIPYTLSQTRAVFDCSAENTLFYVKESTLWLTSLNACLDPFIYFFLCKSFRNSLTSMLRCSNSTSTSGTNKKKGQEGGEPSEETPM

CC(=O)OC[C@H]1O[C@@H](Sc2sc(C(=O)c3ccc(Cl)cc3)c(N)c2-c2nc3ccccc3s2)[C@H](OC(C)=O)[C@@H](OC(C)=O)[C@H]1OC(C)=O  maximum non-toxic concentration (BGM; cytotoxicity; 72 h): 80 µg/mL
CCCCCCCCCCCC(=O)NCCC(=O)N[C@H](CCCNC(=N)N)C(=O)N[C@H](CCCNC(=N)N)C(=O)N[C@H](CCCNC(=N)N)C(=O)N[C@H](CCCNC(=N)N)C(=O)N[C@H](CCCNC(=N)N)C(=O)N[C@@H](CCCNC(=N)N)C(=O)N[C@@H](CCCNC(=N)N)C(=O)N[C@@H](CCCNC(=N)N)C(=O)N[C@@H](CCCNC(=N)N)C(=O)N[C@@H](CCCCNC(=S)Nc1ccc2c(c1)C(=O)OC21c2ccc(O)cc2Oc2cc(O)ccc21)C(N)=O  peak area (Jurkat; RP-HPLC fluorescence, item: intact peptide; culture medium; 6 h): 29.1%
[64Cu+2].c1cnc(CNCc2ccc(CN3CCCN4CCNCCCN(CC4)CC3)cc2)nc1  tissue uptake (CXCR4; NOD/SCID mouse, U87 and U87-stb-CXCR4 xenografts, blood; iv, 120 min, ex vivo): 1.33 ± 0.14 %ID/g
CC12CC(O)C3CC1(OC1OC(CO)C(O)C(O)C1O)C3(COC(=O)c1ccccc1)C(=O)O2 (centres unmarked)  conversion (Staphylococcus aureus; rat gut microbiota; 12 h, anaerobic, SD rat microbiota 100%): 47.5%
COc1ccc(CNc2nc(N3CCC[C@H]3CO)ncc2C(=O)NNC(=O)c2cnc(N3CCC[C@H]3CO)nc2NCc2ccc(OC)c(Cl)c2)cc1Cl  revertants relative to solvent (Salmonella typhimurium; TA98, TA100, TA1535, TA102, TA97a; 62.5 to 1000 µg/plate, 48 h, with and without S9; baseline: solvent control): ≤ 2
CNC(=O)c1ccc(N2CCN(Cc3ccc4nc(C)c(=O)[nH]c4c3F)CC2)c([18F])n1  radioactivity uptake (Poly [ADP-ribose] polymerase 1 (Macaca mulatta, UniProt H9FQ77); male rhesus monkey, cerebellum; intravenous, dose not given, baseline PET): 1.2 SUV
O=C(CSc1nc(-c2ccccc2)cc(C(F)(F)F)n1)Nc1ccccc1  EC50 (SCTR; increase of tracer binding, TR-FRET; HEK293 membranes; added: Fluo-Sec 6 nM): 0.7 ± 0.7 µM
NS(=O)(=O)Nc1ncnc(OCCOc2ncc(Br)cn2)c1-c1ccc(Br)cc1  Vmax (item: compound formation; Beagle dog male, liver microsomes; 500 mg/kg, 4 weeks; baseline: vehicle): 3.3 fold
COc1cc(CCC(C)=O)ccc1O  IC50 (mAb 3-LD3; antibody binding, indirect competitive ELISA; added: coating antigen hapten 4-OVA): > 4 µg/mL
Cc1[nH][n+]([Pt-2]([Cl])([n+]2[nH]c(C)c(CSC3CCCCC3)c2C)[n+]2[nH]c(C)c(CSC3CCCCC3)c2C)c(C)c1CSC1CCCCC1.Cl  IC50 (Jurkat; cytotoxicity, 7-AAD flow cytometry; 24 h): 0.02 µM
[64Cu+2].c1ccc(CNCc2ccc(CN3CCCN4CCNCCCN(CC4)CC3)cc2)nc1  tissue uptake (CXCR4; NOD/SCID mouse, U87 and U87-stb-CXCR4 xenografts, stomach; iv, 90 min, no blocking dose, ex vivo): 1.82 ± 0.22 %ID/g
N#Cc1cccc(-c2ccc(=O)n(Cc3cccc(-c4ncc(OCC5CCN(CCCCC(=O)Nc6cccc7c6C(=O)N(C6CCC(=O)NC6=O)C7=O)CC5)cn4)c3)n2)c1 (centres unmarked)  DC50 (Hepatocyte growth factor receptor (MET, Homo sapiens, UniProt P08581); degrader): 0.0031 ± 0.0013 µM
C#CCOc1ccc(/C=C2\SC(=O)N(CC(=O)NCc3ccccc3)C2=O)cc1  Kirkwood-Buff integral G2,3 (inverse Kirkwood-Buff integrals; binary solvent mixture; 298.15 K, mole fraction x1 0.60): -365 cm³/mol
CC(=O)OC[C@H]1O[C@@H](Sc2sc(C(=O)c3ccc(Br)cc3)c(N)c2-c2nc3ccccc3s2)[C@H](OC(C)=O)[C@@H](OC(C)=O)[C@@H]1OC(C)=O  maximum non-toxic concentration (BGM; cytotoxicity; 72 h): 100 µg/mL
C=C1CC[C@H](OCCCNC(=O)CCOCCOCCOCCOCCOCCOCCOCCOCCOCCOCCOCCOCCOCCOCCOCCOCCOCCOCCOCCOCCOCCOCCOCCOCCOCCOCCOCCOCCOCCOCCOCCOCCOCCOCCOCCOCCNC(=O)CCN2C(=O)CC(SC[C@H](NC(=O)[C@H](Cc3ccccc3)NC(=O)[C@H](CC(N)=O)NC(=O)[C@H](Cc3c[nH]cn3)NC(=O)[C@@H](NC(=O)[C@H](CC(=O)O)NC(=O)[C@H](CCC(N)=O)NC(=O)[C@H](CC(C)C)NC(=O)[C@H](CCCCN)NC(=O)[C@H](CCCCN)NC(=O)[C@H](CCCNC(=N)N)NC(=O)[C@H](CC(C)C)NC(=O)[C@H](Cc3c[nH]c4ccccc34)NC(=O)[C@H](CCC(=O)O)NC(=O)[C@@H](NC(=O)[C@H](CCCNC(=N)N)NC(=O)[C@H](CCC(=O)O)NC(=O)[C@H](CCSC)NC(=O)[C@H](CO)NC(=O)[C@H](CC(N)=O)NC(=O)[C@H](CC(C)C)NC(=O)[C@H](Cc3c[nH]cn3)NC(=O)[C@H](CCCCN)NC(=O)CNC(=O)[C@H](CC(C)C)NC(=O)[C@H](CC(N)=O)NC(=O)[C@H](Cc3c[nH]cn3)NC(=O)[C@H](CCSC)NC(=O)[C@H](CC(C)C)NC(=O)[C@H](CCC(N)=O)NC(=O)[C@@H](NC(=O)[C@H](CCC(=O)O)NC(=O)[C@H](CO)NC(=O)[C@@H](NC(=O)[C@@H](N)CO)C(C)C)[C@@H](C)CC)C(C)C)C(C)C)C(N)=O)C2=O)C/C1=C/C=C1\CCC[C@]2(C)[C@@H]([C@H](C)CCCC(C)(C)O)CC[C@@H]12 (some centres unmarked)  dose-normalized AUC (Sprague Dawley rat; subcutaneous, 70 µg/kg daily, 21 days; baseline: 1 µg/kg dose): 0.96
CC(C)[C@H](NC(=O)CNC(=O)[C@H](CCC(N)=O)NC(=O)[C@H](C)N)C(=O)O  Cmax (male human, plasma; intravenous, 1 mg/kg, single dose): 27 ng/mL
COc1cc2c(CCNC(C)=O)c[nH]c2cc1OS(=O)(=O)O  plasma concentration (Abcg2 (mouse); FVB/N wild-type lactating female mice; intravenous, 10 mg/kg melatonin, 30 min): 1920 ± 610 ng/mL
O=C(O)CCC(NP(=O)(O)OCCC[C@@H](NC(=O)CC[C@H](NC(=O)CCCCCNC(=O)c1ccc([18F])cc1)C(=O)O)C(=O)O)C(=O)O (some centres unmarked)  tracer uptake (CWR22Rv1 tumour model; host not given, kidney; 4 h, tumour-bearing): 17.2 %ID/g
N#Cc1cc(C(=O)OCC[18F])c(C(F)(F)F)nc1N1CCN(C(=O)Cc2ccccc2)CC1  peak brain SUV (P2Y purinoceptor 12 (P2ry12, Mus musculus, UniProt Q9CPV9); PET; mouse aged 40 weeks; 11.1 MBq): 1.96 ± 0.18
COc1ccc(CNc2nc(-c3ccc(OC)cc3)cc(C(F)(F)F)n2)cc1  EC50 (SCTR; cAMP, agonist): 27 µM

For quick reference, copied from above:
COc1ccc(CNc2nc(N3CCC[C@H]3CO)ncc2C(=O)NNC(=O)c2cnc(N3CCC[C@H]3CO)nc2NCc2ccc(OC)c(Cl)c2)cc1Cl  revertants relative to solvent (Salmonella typhimurium; TA98, TA100, TA1535, TA102, TA97a; 62.5 to 1000 µg/plate, 48 h, with and without S9; baseline: solvent control): ≤ 2
